Measurements pooled from the literature.
Numbers after ± are the reported error.

Structure (SMILES) = CC[C@H](C)[C@H](NC(=O)CN)C(=O)N[C@@H](CC(C)C)C(=O)N[C@@H](CCCCN)C(=O)N[C@@H](Cc1ccccc1)C(=O)N[C@@H](CC(C)C)C(=O)N[C@@H](CCC(=O)O)C(=O)N[C@@H](CO)C(=O)N[C@@H](C)C(=O)N[C@@H](CCCCN)C(=O)N[C@@H](CCCCN)C(=O)N[C@@H](Cc1c[nH]c2ccccc12)C(=O)N[C@@H](CC(C)C)C(=O)N[C@@H](CCC(=O)O)C(=O)N[C@@H](C)C(=O)N[C@@H](Cc1ccccc1)C(=O)N[C@@H](CC(C)C)C(=O)N[C@@H](C)C(=O)N[C@@H](CCC(=O)O)C(=O)N[C@H](C(=O)N[C@@H](CCSC)C(=O)N[C@@H](CC(N)=O)C(=O)N[C@@H](CO)C(=O)O)[C@@H](C)CC; assay = carboxyfluorescein release, stopped-flow fluorescence; test system = POPC vesicles 50 µM; setting = up to 1 µM, pH 7.5, peptide/lipid 1:50; endpoint = time constant; result = 13.5 s
Structure (SMILES) = CC[C@H](C)[C@H](NC(=O)[C@H](CCCNC(=N)N)NC(=O)[C@H](Cc1ccc(O)cc1)NC(=O)[C@H](Cc1ccc(O)cc1)NC(=O)[C@@H](N)CCCNC(=N)N)C(=O)N[C@@H](CCCCN)C(N)=O; assay = mechanical allodynia, von Frey; test system = CCI neuropathic mice; setting = intrathecal, 30 min; endpoint = ED50; result = 0.004 nmol
Structure (SMILES) = CCN(Cc1ccccc1)C(=O)CCc1nc(CN2CCN(C(=O)Cc3ccc(OC)c(OC)c3)CC2)no1; assay = elevated plus maze; test system = mouse, CCI neuropathic pain; setting = 20 mg/kg; endpoint = time in central area; result = 30.9 ± 7.42 s
Structure (SMILES) = CCOP(=O)(OCC)OCCCCOC(=O)CC1=C(C)/C(=C/c2ccc([S+](C)[O-])cc2)c2ccc(F)cc21 (stereo not shown); test system = rat, Freund's adjuvant arthritis; setting = oral, 50 mg/kg once daily, prevention protocol; how to read = relative to: control; endpoint = paw weight reduction; result = 60%
Structure (SMILES) = O=C(O)CCn1c(=O)oc2cc(Cl)c(Cl)cc21; test system = rat, acute pancreatitis, lung; setting = dose not given; endpoint = ED1-positive cells; result = increased
Structure (SMILES) = O=c1c(O)c(-c2cc(O)ccc2O)oc2cc(O)cc(O)c12; assay = DPPH radical scavenging; setting = 62.5 µg/mL; endpoint = inhibition; result = 49.7 ± 3.01%
Structure (SMILES) = CC[C@H](C)[C@H](NC(=O)[C@@H](NC(=O)[C@H](CC(=O)O)NC(C)=O)[C@@H](C)O)C(=O)N[C@@H](CCCNC(=N)N)C(=O)N[C@@H](CC(C)C)C(=O)N[C@@H](CC(C)C)C(=O)N[C@@H](Cc1ccccc1)C(=O)N[C@@H](CCC(N)=O)C(=O)N[C@@H](CC(C)C)C(=O)N[C@@H](CCSC)C(=O)N[C@@H](CCCNC(=N)N)C(=O)N1CCC[C@H]1C(=O)N1CCC[C@H]1C(=O)N[C@@H](CC(N)=O)C(=O)N[C@@H](CCSC)C(=O)N[C@H](C(=O)N1CCC[C@H]1C(=O)N[C@@H](C)C(=O)N[C@H](C(=O)N[C@@H](CC(N)=O)C(=O)N[C@@H](C)C(N)=O)C(C)C)[C@@H](C)O; assay = refers to: HA-15 tetramer; test system = antigen-experienced tetramer+ CD4 T cells, healthy adults, HLA-DRB1*0101; setting = dose not given; endpoint = α4β7− CCR9− cells; result = 9.09%
Structure (SMILES) = CCOC(=O)Nc1ccc2c(c1)CN1C(=S)N(c3ccc(C#N)c(C(F)(F)F)c3)C(=O)C1C2 (stereo not shown); test system = mouse, 22Rv1 orthotopic xenograft; setting = intravenous, 25 mg/kg/day; how to read = relative to: vehicle; endpoint = decrease in Ki-67 proliferative index; result = 30.8%
Structure (SMILES) = COc1ccc([N+](=O)[O-])cc1NC(=O)CCC(=O)[O][Zn][O]C(=O)CCC(=O)Nc1cc([N+](=O)[O-])ccc1OC.c1ccncc1; assay = DPPH scavenging, absorbance; setting = 250 µg/mL; endpoint = inhibition; result = 68.2%
Structure (SMILES) = CCOP(=O)(OCC)OCCCCOC(=O)CC1=C(C)C(=Cc2ccc([S+](C)[O-])cc2)c2ccc(F)cc21 (stereo not shown); test system = nude mice, A549 xenograft; setting = oral, dose not given; endpoint = tumour growth inhibition; result = 30%
Structure (SMILES) = CC(COC(=O)c1ccccc1)OC(=O)C(N)C(C)C (mixture of isomers); test system = Caco-2 cell homogenate; setting = prodrug to BA-PG step; endpoint = hydrolysis rate constant; result = 0.021 min⁻¹
Structure (SMILES) = CC[C@@]1(O)C(=O)OCc2c1cc1n(c2=O)Cc2cc3cc(OC(=O)CCCC(=O)NCC(=O)N[C@@H](Cc4ccccc4)C(=O)N[C@@H](Cc4ccccc4)C(=O)N[C@@H](Cc4ccc(OP(=O)(O)O)cc4)C(=O)NCCSSCCNC(=O)CCC(=O)N[C@@H](CCC(=O)O)C(=O)N[C@@H](CCCNC(=N)N)C(=O)NCC(=O)N[C@@H](CC(=O)O)C(=O)O)ccc3nc2-1; test system = nude mice, HepG2 xenograft; setting = intravenous, 3 mg/kg HCPT equivalent, day 21, four doses, initial 300 mm^3; endpoint = tumour volume; result = ~146 mm³
Structure (SMILES) = Cc1cc(Nc2nc(C[C@@]3(C(=O)O)CCN(Cc4cccc(Cl)c4F)[C@H](C)C3)cc(C)c2F)[nH]n1; test system = mice, NCI-H69 xenograft; setting = oral, 20 mg/kg once daily; endpoint = tumour growth inhibition; result = 99%
Structure (SMILES) = O=c1cc(-c2ccc(O)cc2)oc2c([C@@H]3OC[C@H](O)[C@H](O)[C@H]3O)c(O)c([C@@H]3O[C@H](CO)[C@@H](O)[C@H](O)[C@H]3O)c(O)c12; assay = ELISA, refers to: TNF-α, IL-6, IL-1β; test system = BALB/c mice, LPS acute lung injury; setting = oral gavage, 10 and 20 mg/kg, 8 h, added: LPS 2 mg/kg intranasal; endpoint = serum cytokine levels; result = decreased
Structure (SMILES) = CC[C@H](C)[C@H](NC(=O)[C@H](CCCNC(=N)N)NC(=O)[C@H](CCC(N)=O)NC(=O)[C@H](CC(=O)O)NC(=O)[C@H](CC(C)C)NC(=O)[C@H](CC(C)C)NC(=O)[C@H](CC(N)=O)NC(=O)[C@H](Cc1ccccc1)NC(=O)[C@H](CC(=O)O)NC(=O)[C@@H](NC(=O)[C@@H](NC(=O)[C@H](CC(N)=O)NC(=O)CNC(=O)[C@H](CO)NC(C)=O)C(C)C)[C@@H](C)CC)C(=O)N[C@H](C(=O)N[C@@H](Cc1c[nH]c2ccccc12)C(=O)N[C@@H](CCC(N)=O)C(=O)N[C@@H](CC(N)=O)C(=O)N[C@@H](Cc1c[nH]c2ccccc12)C(=O)N[C@@H](Cc1ccc(O)cc1)C(=O)N[C@@H](C)C(N)=O)[C@@H](C)CC; assay = refers to: HA-52 tetramer; test system = antigen-experienced tetramer+ CD4 T cells, healthy adults, HLA-DRB1*0101; setting = dose not given; endpoint = α4β7+ CCR9− cells; result = 55.6%
Structure (SMILES) = O=C(O)CCCC(=O)O; assay = DPPH radical scavenging; setting = 1000 µg/mL; endpoint = inhibition; result = 82.1 ± 1.21%
Structure (SMILES) = CC[C@H](C)[C@H](NC(=O)[C@H](Cc1c[nH]c2ccccc12)NC(=O)[C@H](CCCNC(=N)N)NC(=O)[C@H](CCCCN)NC(=O)[C@H](CC(C)C)NC(=O)[C@H](CC(=O)O)NC(=O)[C@H](Cc1ccccc1)NC(=O)[C@H](C)NC(=O)[C@H](Cc1ccc(O)cc1)NC(=O)[C@H](CC(N)=O)NC(=O)[C@H](Cc1ccc(O)cc1)NC(=O)[C@H](CCCNC(=N)N)NC(=O)[C@H](Cc1ccc(O)cc1)NC(=O)[C@H](Cc1ccc(O)cc1)NC(=O)[C@@H](NC(=O)[C@H](CC(C)C)NC(=O)[C@H](C)NC(=O)[C@H](CC(N)=O)NC(=O)[C@H](Cc1ccc(O)cc1)NC(C)=O)[C@@H](C)CC)C(=O)N[C@@H](Cc1ccc(O)cc1)C(=O)N[C@@H](CC(C)C)C(N)=O; assay = refers to: HA-15 tetramer; test system = antigen-experienced tetramer+ CD4 T cells, healthy adults, HLA-DRB1*0101; setting = dose not given; endpoint = α4β7+ CCR9+ cells; result = 0%
Structure (SMILES) = N[C@@H](Cc1ccc(O)cc1)C(=O)N1CCC[C@H]1C(=O)NCC(=O)NCC(=O)O; assay = diketopiperazine formation, Arrhenius plot, ESI-MS; test system = 1-propanol; setting = 70, 80, 90 °C, 0.5% acetic acid; endpoint = ΔG‡ at 298.15 K; result = 23.2 ± 3.59 kcal/mol
Structure (SMILES) = CC(C)C[C@@H]1NC(=O)[C@H](C(C)C)NC(=O)[C@H](CO)NC(=O)CNC(=O)CNC(=O)[C@H](CCCNC(=N)N)NC(=O)[C@@H]2CCCN2C(=O)[C@@H](NC(=O)CC[C@H](NC(=O)c2ccc(N(C)Cc3cnc4nc(N)nc(N)c4n3)cc2)C(=O)O)C(C)(C)SSC[C@@H](C(=O)O)NC(=O)CNC(=O)[C@H]([C@@H](C)O)NC(=O)[C@H](C(C)C)NC1=O; test system = rat adjuvant arthritis; setting = 0.5 to 1.0 mg/kg; how to read = relative to: vehicle; endpoint = paw weight reduction; result = 7 to 11%
Structure (SMILES) = CC(C)C[C@@H](NC(=O)[C@H]1CCCN1C(=O)[C@H]1CCCN1C(=O)[C@@H](CCCNC(=N)N)NC(=O)[C@@H](CCCNC(=N)N)NC(=O)[C@@H](CCCNC(=N)N)NC(=O)[C@@H](CCC(N)=O)NC(=O)[C@@H](CCCNC(=N)N)NC(=O)[C@@H](CCCNC(=N)N)NC(=O)[C@@H](CCCCN)NC(=O)[C@@H](CCCCN)NC(=O)[C@@H](CCCNC(=N)N)NC(=O)CNC(=O)[C@H](N)Cc1ccc(O)cc1)C(=O)N[C@H](CCCNC(=N)N)C(=O)N[C@H](CCCCN)C(=O)N[C@H](CCCCN)C(=O)N[C@H](CCCCN)C(=O)N[C@H](CCCCN)C(=O)N[C@H](CCCCN)C(=O)N[C@H](Cc1c[nH]cn1)C(N)=O; assay = telemetry; test system = mouse, awake; setting = intraperitoneal, dose not given; endpoint = mean arterial pressure increase; result = ≤ 18 mmHg
Structure (SMILES) = COc1ccc(CCN2CCC[C@H](CN3CCc4cc(OC)c(OC)cc4CC3=O)C2)cc1OC; assay = VTA dopamine neurons; test system = CSDS-susceptible male mice; setting = intraperitoneal, 20 mg/kg; how to read = relative to: baseline; endpoint = firing rate; result = decreased
Structure (SMILES) = CC[C@H](C)[C@@H]1NC(=O)[C@@H](N)CSSC[C@@H]2NC(=O)[C@@H]3CSSC[C@@H]4NC(=O)[C@H](Cc5ccccc5)NC(=O)CNC(=O)[C@H](C(C)C)NC(=O)[C@H](CC(C)C)NC(=O)[C@H](CSSC[C@H](NC(=O)[C@H](Cc5c[nH]c6ccccc56)NC(=O)CNC(=O)CNC(=O)[C@H](CO)NC(=O)[C@H](CO)NC1=O)C(=O)NCC(=O)N[C@@H](Cc1ccccc1)C(=O)N[C@@H](CC(=O)O)C(=O)N[C@@H](CC(C)C)C(=O)N[C@@H](Cc1c[nH]cn1)C(=O)NCC(=O)N3)NC(=O)CNC(=O)[C@H](CSSC[C@@H](C(=O)O)NC(=O)CNC(=O)[C@H]([C@@H](C)O)NC(=O)CNC(=O)[C@H](Cc1ccc(O)cc1)NC4=O)NC(=O)[C@H](CC(N)=O)NC(=O)CNC2=O; assay = whole-cell voltage clamp; test system = rat hippocampal neurons; setting = up to 5 µM; endpoint = potassium current; result = no effect

Some of these lines once more:
Structure (SMILES) = CC[C@H](C)[C@H](NC(=O)[C@H](Cc1c[nH]c2ccccc12)NC(=O)[C@H](CCCNC(=N)N)NC(=O)[C@H](CCCCN)NC(=O)[C@H](CC(C)C)NC(=O)[C@H](CC(=O)O)NC(=O)[C@H](Cc1ccccc1)NC(=O)[C@H](C)NC(=O)[C@H](Cc1ccc(O)cc1)NC(=O)[C@H](CC(N)=O)NC(=O)[C@H](Cc1ccc(O)cc1)NC(=O)[C@H](CCCNC(=N)N)NC(=O)[C@H](Cc1ccc(O)cc1)NC(=O)[C@H](Cc1ccc(O)cc1)NC(=O)[C@@H](NC(=O)[C@H](CC(C)C)NC(=O)[C@H](C)NC(=O)[C@H](CC(N)=O)NC(=O)[C@H](Cc1ccc(O)cc1)NC(C)=O)[C@@H](C)CC)C(=O)N[C@@H](Cc1ccc(O)cc1)C(=O)N[C@@H](CC(C)C)C(N)=O; assay = refers to: HA-15 tetramer; test system = antigen-experienced tetramer+ CD4 T cells, healthy adults, HLA-DRB1*0101; setting = dose not given; endpoint = α4β7+ CCR9+ cells; result = 0%
Structure (SMILES) = N[C@@H](Cc1ccc(O)cc1)C(=O)N1CCC[C@H]1C(=O)NCC(=O)NCC(=O)O; assay = diketopiperazine formation, Arrhenius plot, ESI-MS; test system = 1-propanol; setting = 70, 80, 90 °C, 0.5% acetic acid; endpoint = ΔG‡ at 298.15 K; result = 23.2 ± 3.59 kcal/mol
Structure (SMILES) = CC(C)C[C@@H]1NC(=O)[C@H](C(C)C)NC(=O)[C@H](CO)NC(=O)CNC(=O)CNC(=O)[C@H](CCCNC(=N)N)NC(=O)[C@@H]2CCCN2C(=O)[C@@H](NC(=O)CC[C@H](NC(=O)c2ccc(N(C)Cc3cnc4nc(N)nc(N)c4n3)cc2)C(=O)O)C(C)(C)SSC[C@@H](C(=O)O)NC(=O)CNC(=O)[C@H]([C@@H](C)O)NC(=O)[C@H](C(C)C)NC1=O; test system = rat adjuvant arthritis; setting = 0.5 to 1.0 mg/kg; how to read = relative to: vehicle; endpoint = paw weight reduction; result = 7 to 11%
